# Measurements collected from several papers.
# Numbered parts are unrelated; each lists some results of a single study. Changes are numbered by the printed parent chain.

# Study 1
# Target: Interferon regulatory factor 5, full length, phosphomimetic (IRF5, Homo sapiens, UniProt Q13568-2, residues 1-514, K96S/S451D/S453D/S456D/S462D)
# Technique: protein-binding microarray
# Molecule type: double-stranded DNA, one strand shown
# Sample: in vitro
# Concentration: 250 nM
# Setting: 60-bp whole probe
# Together with: salmon DNA 0.4 mg/ml
# Relative to: random background probes
# Direction: higher = stronger binding
# All sequences stand within: GCCTAGCAC … GTCTTGATTCGCTTGACGCTGCTG
Oligonucleotide,log fluorescence
TTAGGCTTCGGGTTTCGGTTAGTGCTA,7.17 z-score
CTCTACATGTGTTTAAGAATGTGCTAG,0.36 z-score
GCCGGTATCGACTATCGGGACGTGCTA,4.56 z-score
GACGGTATCGGTATTGGGACGTGCTAG,5.42 z-score
GGATGAGCAAGGGGGCCTCGGTGCTAG,-0.437 z-score
GACGGTTTGGGTTCCGGGACGTGCTAG,-0.0427 z-score
CTAGTTTTACTTTCTATGTCGTGCTAG,5.1 z-score
GACGAATTCAGTTTCGAGACGTGCTAG,6.46 z-score
GACGGTTTCGGTATCCGGACGTGCTAG,9.65 z-score
TCAATTTTCTTTAACTCACTGTGCTAG,1.29 z-score
TTAGGTTTCCTTTGCCTTTAGTGCTAG,0.72 z-score
TCAAGAGTAGTTTTTCAAACTGTGCTA,0.405 z-score
GAAGGACTGCTACTGCTGACGTGCTAG,-0.621 z-score
AAAGATATAAATGTAACATGGTGCTAG,0.262 z-score
TTAGGTTTCCCTTCCCTTTAGTGCTAG,1.13 z-score
TTTTCATTTTCTTTAACTCAGTGCTAG,3.72 z-score
TTAGGTATCCACTTTCGGTTAGTGCTA,10.2 z-score
GACGATTTCGGGTATCGAGATGTGCTA,5.12 z-score
TCAGGTCTCGGACTGGGTTAGTGCTAG,-0.462 z-score

# Study 2
# Target: CCNA2, cyclin fold, Cln2 fusion (human)
# Technique: yeast growth competition, sequencing
# Sample: yeast
# Setting: strong parent motif
# Relative to: not given
# Direction: higher = stronger binding
# Parent: PKMYT1 docking peptide (human); SFEPRNLLSLFED; partner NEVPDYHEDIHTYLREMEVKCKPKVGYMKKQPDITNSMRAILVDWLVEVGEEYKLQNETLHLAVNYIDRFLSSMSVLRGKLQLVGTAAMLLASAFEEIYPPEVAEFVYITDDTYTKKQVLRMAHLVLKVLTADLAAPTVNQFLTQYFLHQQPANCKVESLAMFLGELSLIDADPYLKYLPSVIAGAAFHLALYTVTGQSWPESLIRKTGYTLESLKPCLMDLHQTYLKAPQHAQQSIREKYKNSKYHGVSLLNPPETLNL
Substitution,normalised enrichment score
S1E,1.92
P4Q,-0.446
N6E,0.579
S1Q,3.42
R5M,0.886
S9A,2.72
D13E,2.72
L7R,-0.786
L7T,-1.16
L10D,2.21
R5F,-0.244
N6M,-0.143
S9Q,2.16
L8M,2.79
L7D,-0.812
F11K,-0.644

# Study 3
# Partner: ARF9 519-638 (Arabidopsis thaliana, UniProt Q9XED8)
# Technique: two-hybrid
# Setting: weak activation fusion
# Relative to: out of 4 tests
# Direction: higher = firmer interaction
# B1: ARF8 699-811 (Arabidopsis thaliana, UniProt Q9FGV1); chain NSSNQTKNFVKVYKSGSVGRSLDISRFSSYHELREELGKMFAIEGLLEDPLRSGWQLVFVDKENDILLLGDDPWESFVNNVWYIKILSPEDVHQMGDHGEGSGGLFPQNPTHL
# B2: ARF5 788-902 (Arabidopsis thaliana, UniProt P93024); chain ATPRVRTYTKVQKTGSVGRSIDVTSFKDYEELKSAIECMFGLEGLLTHPQSSGWKLVYVDYESDVLLVGDDPWEEFVGCVRCIRILSPTEVQQMSEEGMKLLNSAGINDLKTSVS
# B3: ARF1 538-665 (Arabidopsis thaliana, UniProt Q8L7G0); chain SRQIRSCTKVHMQGSAVGRAIDLTRSECYEDLFKKLEEMFDIKGELLESTKKWQVVYTDDEDDMMMVGDDPWNEFCGMVRKIFIYTPEEVKKLSPKNKLAVNARMQLKADAEENGNTEGRSSSMAGSR
# B4: IAA32 (Arabidopsis thaliana, UniProt Q8RYC6); chain MDPNTPADFFKGSSKFHTYYSQTKKGGGVIDLGLSLRTIQHETYLPPARMIGLDGYGELIDWSQPSYNSITQLKSEDTGHQRLAQGYYNNEGESRGKYAYVKVNLDGLVVGRKVCLVDQGAYATLALQLNDMFGMQTVSGLRLFQTESEFSLVYRDREGIWRNVGDVPWKEFVESVDRMRIARRNDALLPF
# B5: ARF2 727-859 (Arabidopsis thaliana, UniProt Q94JM3); chain TKTNSSRSCTKVHKQGIALGRSVDLSKFQNYEELVAELDRLFEFNGELMAPKKDWLIVYTDEENDMMLVGDDPWQEFCCMVRKIFIYTKEEVRKMNPGTLSCRSEEEAVVGEGSDAKDAKSASNPSLSSAGNS
# Target sequence (chain): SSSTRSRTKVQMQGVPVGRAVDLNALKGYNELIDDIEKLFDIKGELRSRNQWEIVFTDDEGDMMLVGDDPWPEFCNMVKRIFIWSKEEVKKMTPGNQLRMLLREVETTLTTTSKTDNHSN
Sequence,positive tests
B1 (ARF8 699-811),1
B2 (ARF5 788-902),1
B3 (ARF1 538-665),0
B4 (IAA32),3
B5 (ARF2 727-859),0

# Study 4
# Target: ABI1, truncated, D143A, DHFR fusion (Arabidopsis thaliana)
# Technique: DHFR PCA, deep sequencing
# Sample: yeast
# Setting: methotrexate growth selection, single substitutions
# Together with: (+)-ABA 2500 µM
# Relative to: wild-type fitted maximum
# Direction: higher = stronger binding
# Parent: PYL1, truncated, DHFR fusion (Arabidopsis thaliana); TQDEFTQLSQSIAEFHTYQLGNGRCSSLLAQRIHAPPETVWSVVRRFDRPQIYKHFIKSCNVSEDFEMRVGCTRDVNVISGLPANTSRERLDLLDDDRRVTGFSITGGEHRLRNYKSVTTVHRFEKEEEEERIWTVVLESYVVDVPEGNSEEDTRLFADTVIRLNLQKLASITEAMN
Substitution,relative binding score [%]
H110S,87.2
I52G,91.8
T135D,6.48
T1A,101
P83W,32
E67R,94.5
T86H,100
L94C,96.8
A13M,95.4
L156V,97.8
D65M,91.3
T6M,108
V43E,74.5
V137R,-2.8
K116L,65
N149T,89.1
R88C,98.4
D48W,73.8
N61D,94.8
Y141S,-6.17
A170Q,98.4
E125R,102
L28H,87.1
D159R,76.2
T101E,59.7
